# Results of several laboratories.
# Sequences of proteins named here, by UniProt entry; tags and fusion partners are left off. Residues count along the entry.
# UniProt P04150, whole entry: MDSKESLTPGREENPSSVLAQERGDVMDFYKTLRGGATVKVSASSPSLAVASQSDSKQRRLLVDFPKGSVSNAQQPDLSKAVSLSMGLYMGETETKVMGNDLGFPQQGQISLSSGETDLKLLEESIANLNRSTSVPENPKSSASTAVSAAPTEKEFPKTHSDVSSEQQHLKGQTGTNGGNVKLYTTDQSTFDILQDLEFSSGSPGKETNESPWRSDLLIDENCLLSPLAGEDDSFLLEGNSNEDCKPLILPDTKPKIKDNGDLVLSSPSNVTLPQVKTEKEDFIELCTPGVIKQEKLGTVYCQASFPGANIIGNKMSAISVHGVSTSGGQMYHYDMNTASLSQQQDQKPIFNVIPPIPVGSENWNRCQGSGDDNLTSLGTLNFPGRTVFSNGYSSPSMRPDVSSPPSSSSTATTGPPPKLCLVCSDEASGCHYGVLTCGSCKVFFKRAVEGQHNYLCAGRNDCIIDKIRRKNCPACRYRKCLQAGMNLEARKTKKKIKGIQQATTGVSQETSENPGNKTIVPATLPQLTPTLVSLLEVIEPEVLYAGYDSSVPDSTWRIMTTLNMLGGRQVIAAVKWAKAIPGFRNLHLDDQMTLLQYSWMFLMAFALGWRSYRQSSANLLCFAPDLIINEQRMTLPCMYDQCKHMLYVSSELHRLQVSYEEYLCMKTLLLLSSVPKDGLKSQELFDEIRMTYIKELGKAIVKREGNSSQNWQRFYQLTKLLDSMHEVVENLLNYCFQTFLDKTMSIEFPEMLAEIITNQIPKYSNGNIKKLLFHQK
# UniProt P23204, whole entry: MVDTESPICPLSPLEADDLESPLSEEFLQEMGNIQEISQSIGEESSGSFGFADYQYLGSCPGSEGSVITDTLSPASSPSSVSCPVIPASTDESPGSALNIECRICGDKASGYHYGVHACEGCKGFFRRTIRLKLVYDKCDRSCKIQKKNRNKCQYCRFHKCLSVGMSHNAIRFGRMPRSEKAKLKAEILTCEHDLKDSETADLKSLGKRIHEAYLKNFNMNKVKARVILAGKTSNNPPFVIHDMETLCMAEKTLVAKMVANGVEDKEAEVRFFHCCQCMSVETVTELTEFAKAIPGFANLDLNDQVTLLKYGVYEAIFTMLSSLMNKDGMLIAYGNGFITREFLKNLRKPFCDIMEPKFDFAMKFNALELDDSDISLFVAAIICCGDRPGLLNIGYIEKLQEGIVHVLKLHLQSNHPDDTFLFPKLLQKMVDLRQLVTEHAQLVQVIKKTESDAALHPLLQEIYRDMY
# UniProt P51532, whole entry: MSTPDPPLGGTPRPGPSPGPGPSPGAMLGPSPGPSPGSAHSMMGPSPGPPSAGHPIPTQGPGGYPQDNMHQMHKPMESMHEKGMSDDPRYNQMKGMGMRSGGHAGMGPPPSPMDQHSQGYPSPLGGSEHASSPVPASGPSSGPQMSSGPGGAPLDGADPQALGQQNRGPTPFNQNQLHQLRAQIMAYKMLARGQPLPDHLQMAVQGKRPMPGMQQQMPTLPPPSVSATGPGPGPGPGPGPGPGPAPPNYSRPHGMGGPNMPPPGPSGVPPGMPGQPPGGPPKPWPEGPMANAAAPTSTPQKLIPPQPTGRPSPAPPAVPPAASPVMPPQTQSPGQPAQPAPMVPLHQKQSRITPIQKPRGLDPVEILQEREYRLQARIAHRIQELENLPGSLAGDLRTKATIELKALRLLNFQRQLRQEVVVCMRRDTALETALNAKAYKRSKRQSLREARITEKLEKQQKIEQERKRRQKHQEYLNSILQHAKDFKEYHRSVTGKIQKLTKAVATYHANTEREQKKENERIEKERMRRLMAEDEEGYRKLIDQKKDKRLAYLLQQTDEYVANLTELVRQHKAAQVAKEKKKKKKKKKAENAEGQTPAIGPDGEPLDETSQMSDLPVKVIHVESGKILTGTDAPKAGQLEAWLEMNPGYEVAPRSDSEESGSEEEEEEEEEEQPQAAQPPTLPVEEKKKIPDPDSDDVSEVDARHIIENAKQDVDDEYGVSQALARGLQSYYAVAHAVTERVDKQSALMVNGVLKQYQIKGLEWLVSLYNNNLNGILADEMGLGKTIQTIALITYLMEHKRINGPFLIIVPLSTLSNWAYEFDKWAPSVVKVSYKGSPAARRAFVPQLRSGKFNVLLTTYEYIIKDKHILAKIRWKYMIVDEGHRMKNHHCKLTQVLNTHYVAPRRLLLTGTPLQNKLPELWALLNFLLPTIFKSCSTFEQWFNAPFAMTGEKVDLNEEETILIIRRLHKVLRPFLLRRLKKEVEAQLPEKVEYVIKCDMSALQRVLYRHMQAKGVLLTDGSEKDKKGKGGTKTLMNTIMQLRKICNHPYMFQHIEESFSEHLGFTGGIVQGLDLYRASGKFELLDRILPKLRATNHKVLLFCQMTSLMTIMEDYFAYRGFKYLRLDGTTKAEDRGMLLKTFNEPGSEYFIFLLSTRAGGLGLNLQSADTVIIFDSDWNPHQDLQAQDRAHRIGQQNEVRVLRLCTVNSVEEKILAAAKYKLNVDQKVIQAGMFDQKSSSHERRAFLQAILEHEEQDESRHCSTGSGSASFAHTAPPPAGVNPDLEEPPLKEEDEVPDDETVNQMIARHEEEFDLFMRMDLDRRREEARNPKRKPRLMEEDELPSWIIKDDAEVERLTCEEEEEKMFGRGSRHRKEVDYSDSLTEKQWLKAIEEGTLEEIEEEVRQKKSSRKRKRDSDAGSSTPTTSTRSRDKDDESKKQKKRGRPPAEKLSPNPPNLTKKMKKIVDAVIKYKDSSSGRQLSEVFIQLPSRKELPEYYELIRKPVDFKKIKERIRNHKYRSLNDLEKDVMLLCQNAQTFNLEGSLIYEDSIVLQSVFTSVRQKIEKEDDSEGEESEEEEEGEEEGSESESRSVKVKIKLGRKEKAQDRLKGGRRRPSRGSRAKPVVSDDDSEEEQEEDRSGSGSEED
# UniProt P17858, whole entry: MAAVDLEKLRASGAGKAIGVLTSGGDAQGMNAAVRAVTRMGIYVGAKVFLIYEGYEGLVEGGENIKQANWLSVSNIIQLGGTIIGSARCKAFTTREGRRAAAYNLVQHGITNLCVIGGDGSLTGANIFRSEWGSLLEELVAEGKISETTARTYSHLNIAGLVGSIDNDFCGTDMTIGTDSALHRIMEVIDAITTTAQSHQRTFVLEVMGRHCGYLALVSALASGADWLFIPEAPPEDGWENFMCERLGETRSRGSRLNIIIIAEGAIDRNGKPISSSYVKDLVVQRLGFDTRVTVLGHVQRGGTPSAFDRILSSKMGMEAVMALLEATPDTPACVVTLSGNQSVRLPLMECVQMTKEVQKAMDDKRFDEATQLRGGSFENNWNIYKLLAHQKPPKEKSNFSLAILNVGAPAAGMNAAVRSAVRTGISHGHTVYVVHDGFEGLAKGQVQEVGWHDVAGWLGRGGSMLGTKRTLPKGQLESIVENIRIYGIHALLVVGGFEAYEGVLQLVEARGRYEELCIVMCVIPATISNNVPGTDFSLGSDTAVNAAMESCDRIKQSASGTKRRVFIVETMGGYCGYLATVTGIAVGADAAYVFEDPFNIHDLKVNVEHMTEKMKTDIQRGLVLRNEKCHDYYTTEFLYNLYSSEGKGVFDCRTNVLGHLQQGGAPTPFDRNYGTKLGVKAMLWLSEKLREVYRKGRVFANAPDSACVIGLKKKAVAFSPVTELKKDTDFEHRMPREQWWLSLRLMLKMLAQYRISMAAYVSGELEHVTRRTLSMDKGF
# UniProt P10636, whole entry, looked up: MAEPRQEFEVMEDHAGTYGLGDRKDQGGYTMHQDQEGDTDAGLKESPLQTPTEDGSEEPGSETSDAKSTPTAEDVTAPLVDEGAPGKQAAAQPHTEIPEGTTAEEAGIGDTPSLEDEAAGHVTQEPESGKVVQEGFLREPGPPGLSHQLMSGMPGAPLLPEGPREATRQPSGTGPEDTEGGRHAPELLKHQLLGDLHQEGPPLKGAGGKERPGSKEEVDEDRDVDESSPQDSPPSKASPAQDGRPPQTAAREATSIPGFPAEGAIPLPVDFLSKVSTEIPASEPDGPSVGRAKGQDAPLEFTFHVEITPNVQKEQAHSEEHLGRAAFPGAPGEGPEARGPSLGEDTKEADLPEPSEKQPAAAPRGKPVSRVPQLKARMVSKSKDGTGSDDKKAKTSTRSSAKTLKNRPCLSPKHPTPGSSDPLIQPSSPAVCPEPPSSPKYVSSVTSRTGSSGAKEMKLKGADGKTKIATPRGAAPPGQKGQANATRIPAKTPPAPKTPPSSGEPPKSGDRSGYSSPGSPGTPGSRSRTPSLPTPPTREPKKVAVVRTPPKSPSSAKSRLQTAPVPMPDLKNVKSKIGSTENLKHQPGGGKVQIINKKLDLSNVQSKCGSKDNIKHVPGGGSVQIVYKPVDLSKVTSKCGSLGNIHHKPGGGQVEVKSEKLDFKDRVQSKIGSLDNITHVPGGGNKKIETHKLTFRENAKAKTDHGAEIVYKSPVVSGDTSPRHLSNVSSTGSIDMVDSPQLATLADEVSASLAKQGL
# UniProt P13569, whole entry: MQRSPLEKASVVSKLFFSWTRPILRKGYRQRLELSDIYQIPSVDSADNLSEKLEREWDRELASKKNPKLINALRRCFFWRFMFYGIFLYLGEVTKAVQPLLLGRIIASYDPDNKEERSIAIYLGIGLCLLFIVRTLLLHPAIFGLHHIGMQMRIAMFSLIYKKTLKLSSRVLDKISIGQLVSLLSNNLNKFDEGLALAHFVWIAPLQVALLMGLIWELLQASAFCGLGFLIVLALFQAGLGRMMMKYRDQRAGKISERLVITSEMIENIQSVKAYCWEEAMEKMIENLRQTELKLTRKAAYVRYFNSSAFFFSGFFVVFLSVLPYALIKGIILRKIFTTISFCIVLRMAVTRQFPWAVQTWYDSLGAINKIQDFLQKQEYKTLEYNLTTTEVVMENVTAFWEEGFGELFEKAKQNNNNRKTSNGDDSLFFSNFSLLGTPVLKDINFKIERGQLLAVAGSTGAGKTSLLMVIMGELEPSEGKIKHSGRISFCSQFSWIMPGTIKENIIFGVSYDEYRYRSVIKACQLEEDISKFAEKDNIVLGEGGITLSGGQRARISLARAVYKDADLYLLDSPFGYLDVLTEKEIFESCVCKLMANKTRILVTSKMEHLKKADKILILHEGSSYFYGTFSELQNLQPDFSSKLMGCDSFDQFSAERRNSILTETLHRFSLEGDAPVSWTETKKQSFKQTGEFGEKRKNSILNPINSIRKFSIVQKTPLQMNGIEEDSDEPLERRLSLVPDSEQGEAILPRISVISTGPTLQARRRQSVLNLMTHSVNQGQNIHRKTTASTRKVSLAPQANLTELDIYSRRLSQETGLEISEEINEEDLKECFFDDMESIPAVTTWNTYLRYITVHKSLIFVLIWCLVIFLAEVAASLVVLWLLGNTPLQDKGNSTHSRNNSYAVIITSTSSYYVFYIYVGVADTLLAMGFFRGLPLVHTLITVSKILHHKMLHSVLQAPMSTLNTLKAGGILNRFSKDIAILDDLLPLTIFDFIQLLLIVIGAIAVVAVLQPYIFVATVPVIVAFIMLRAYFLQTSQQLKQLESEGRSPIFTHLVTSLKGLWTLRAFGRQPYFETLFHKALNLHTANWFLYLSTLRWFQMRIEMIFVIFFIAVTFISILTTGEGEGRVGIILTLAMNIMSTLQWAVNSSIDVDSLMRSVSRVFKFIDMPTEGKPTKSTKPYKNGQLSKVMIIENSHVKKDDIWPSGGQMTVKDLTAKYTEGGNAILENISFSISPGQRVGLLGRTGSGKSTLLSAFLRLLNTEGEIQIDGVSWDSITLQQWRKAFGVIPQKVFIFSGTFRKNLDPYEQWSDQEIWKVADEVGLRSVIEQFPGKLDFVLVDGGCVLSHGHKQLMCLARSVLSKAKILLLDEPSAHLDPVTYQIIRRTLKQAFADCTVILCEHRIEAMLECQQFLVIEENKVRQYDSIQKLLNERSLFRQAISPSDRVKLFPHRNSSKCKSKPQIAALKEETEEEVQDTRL
# UniProt Q9QWY8, 325-724 limits assumed: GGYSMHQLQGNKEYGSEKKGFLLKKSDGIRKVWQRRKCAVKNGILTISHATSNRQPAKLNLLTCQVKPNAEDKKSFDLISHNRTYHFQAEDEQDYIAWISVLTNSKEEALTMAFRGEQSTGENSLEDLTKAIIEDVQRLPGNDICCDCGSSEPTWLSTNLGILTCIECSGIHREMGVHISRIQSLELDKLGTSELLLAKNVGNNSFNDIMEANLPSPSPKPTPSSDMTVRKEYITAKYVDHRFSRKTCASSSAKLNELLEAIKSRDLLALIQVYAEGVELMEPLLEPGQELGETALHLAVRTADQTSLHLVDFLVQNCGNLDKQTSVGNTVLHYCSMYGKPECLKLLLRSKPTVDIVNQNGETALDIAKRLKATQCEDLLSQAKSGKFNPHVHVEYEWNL
# Protocols differ between the studies behind these lines. Numbers after ± are the reported error.
# HSP90AA1: Heat shock protein HSP 90-alpha (HSP90AA1, Homo sapiens, UniProt P07900)
# NR3C1: Glucocorticoid receptor (NR3C1, Homo sapiens, UniProt P04150)
# Ppara: Peroxisome proliferator-activated receptor alpha (Ppara, Mus musculus, UniProt P23204)
SMILES,tested on,assay,test system,setting,scale,endpoint,value
CC1/C=C/CCCOC(=O)c2c(O)cc(O)cc2CC(=NOCC(=O)N2CCCCC2)/C=C/C1 (racemic),HSP90AA1,"binding, fluorescence polarisation competition",,"E/Z oxime mixture, added: fluorescein-labelled 17-AAG",,EC50,0.587 µM
C[C@]1(O)CC[C@H]2[C@@H]3[C@@H](O)CC4=CC(=O)CC[C@@]4(C)[C@H]3CC[C@]21C,NR3C1,"nuclear translocation, agonist, enzyme fragment complementation",,,,EC50,> 9 µM
CCCC1C/C=C/CCCCC(=NOCC(=O)N2CCCCC2)Cc2c(Cl)c(O)cc(O)c2C(=O)O1 (stereo not drawn),HSP90AA1,"binding, fluorescence polarisation competition",,"E/Z oxime mixture, added: fluorescein-labelled 17-AAG",,EC50,0.543 µM
C[C@H]1C[C@@H]2[C@H]3CCC4=CC(=O)C=C[C@@]4(C)[C@]3(Cl)[C@@H](Cl)C[C@]2(C)[C@]1(O)C(=O)COP(=O)(O)O,NR3C1,"nuclear translocation, agonist, enzyme fragment complementation",,,,EC50,7.37 µM
O=C(Nc1cccnn1)N1CC(Oc2ccc(-c3ccccc3F)cn2)C1,,,healthy humans,"oral, 50 to 500 mg daily, up to 7 days",,tolerability,not toxic
CC[C@@H]1C(=O)N(C)c2cnc(Nc3ccc(C(=O)NC4CCN(C)CC4)cc3OC)nc2N1C1CCCC1,"SMARCA4 (Homo sapiens, UniProt P51532)",thermal stability,,10 µM,,ΔTm,-0.24 ± 0.02 °C
CCOC(=O)OCOc1c(-c2ccc(Oc3ccc(OC(F)(F)F)cc3)cc2)c(C)nc2cc(OC)c(Cl)cc12,"Cytochrome b (MT-CYB, Homo sapiens, UniProt P00156)",enzyme activity,,,,EC50,> 10 µM
Cc1c(O)cc2c(c1C)O[C@](C)(CCCC(C)C)CC2,PHLPP1,Western blot,"LNCaP, non-raft membrane fractions","concentration not given, 24 h, serum-free medium","baseline: DMSO vehicle, PDK1-normalised",membrane PHLPP1 level,> 2.5 fold
C[C@]1(c2ccccc2)O[C@@H]2C[C@@H]3[C@@H]4CCC5=CC(=O)C=C[C@@]5(C)[C@]4(F)[C@H](O)C[C@]3(C)[C@@]2(C(=O)CO)O1,NR3C1,"nuclear translocation, agonist, enzyme fragment complementation",,,,EC50,0.00231 µM
CCN1CCN(Cc2ccc(NC(=O)c3ccc(C)c(Oc4ncnc5cc(OC)c(OC)cc45)c3)cc2C(F)(F)F)CC1,"FGR (Homo sapiens, UniProt P09769)",in vitro kinase,,lower bound,baseline: other kinases IC50 over FGR,selectivity ratio,> 1000 fold
Nc1c(C(=O)Nc2c(F)cc(F)cc2Br)sc2nc3c(cc12)CCC3,H1299,,,"concentration not given, 48 h",,total SOD activity,decreased
COc1ccc(S(=O)(=O)n2cc(CCN3CCC(=C(c4ccc(F)cc4)c4ccc(F)cc4)CC3)nn2)cc1,"PFKL (Homo sapiens, UniProt P17858)","enzyme activity, activator, ADP-Glo",,30 min,,EC50,56 µM
C[C@H](CCC(=O)O)[C@H]1CC[C@@H]2[C@@H]3CC[C@H]4C[C@@H](O)CC[C@@]4(C)[C@@H]3C[C@H](O)[C@@]21C,NR3C1,"nuclear translocation, agonist, enzyme fragment complementation",,,,EC50,> 9 µM
Fc1cccc(-n2cnc3c(NCc4nc5cc(Cl)ccc5[nH]4)nc(N4CCNCC4)nc32)c1,FLT3 N841L,KINOMEscan competition binding,,10 µM,baseline: control,remaining binding,13%
Fc1cc(-c2ccc3c(n2)[nH]c2ccncc23)ccn1 [isotope labelled],"Microtubule-associated protein tau, paired helical filaments (MAPT, Homo sapiens, UniProt P10636)",radioligand binding,PHF tau brain homogenate,1.29 nM,higher = more binding,specific binding,1.41 a.u.
CC(C)(Oc1ccc(C2CC2(Cl)Cl)cc1)C(=O)O (stereo not drawn),Ppara,"coactivator recruitment, agonist, biolayer interferometry, item: PGC-1alpha peptide",,"pH 7.4, 25 °C, 0.1% fatty acid-free BSA",,EC50,5.4 µM
Cc1cccc(NC(=O)c2nn(Cc3cnc[nH]3)c3c2CN(C(=O)c2ccc[nH]2)CC3)c1,"IDH1 (Homo sapiens, UniProt O75874, R132C)","R-2-HG production, inhibitor, LC-MS/MS",HT-1080,24 h,,EC50,> 36 µM
COc1cc(CC(=O)NCC(NC(=O)C(CCCNC(=O)c2cccc(I)c2)NC(=O)C(Cc2ccc(C(F)(F)P(=O)(O)O)cc2)NC(=O)c2ccc(C)c(Br)c2)C(N)=O)ccc1O (stereo not drawn),"PTPN22 (Homo sapiens, UniProt Q9Y2R2)",enzyme activity,,10 µM,,inhibition,no inhibition
O=C(O)C(Cl)(Cl)Cl,Ppara,"coactivator recruitment, agonist, biolayer interferometry, item: PGC-1alpha peptide",,"pH 7.4, 25 °C, 0.1% fatty acid-free BSA, sodium salt",,EC50,900 µM
CSc1ncnc2c1ncn2CC(=O)[C@H]1CC[C@H]2[C@H]3CCC4=CC(=O)CC[C@@]4(C)[C@@H]3CC[C@@]12C,NR3C1,"nuclear translocation, agonist, enzyme fragment complementation",,,,EC50,> 9 µM
CC(C)[C@H]1NC(=O)[C@H]([C@@H](C)O)NC(=O)[C@@H](C)NC(=O)[C@H](CCCNC(=N)N)NC(=O)[C@@H](Cc2ccccc2)NC(=O)[C@H](Cc2ccccc2)NC1=O,20S proteasome core particle,"proteasome activity, activator",,,,EC50,4 µM
O=c1c(O[C@@H]2O[C@H](CO)[C@@H](O)[C@H](O)[C@H]2O)c(-c2cc(O)c(O[C@@H]3O[C@H](CO)[C@@H](O)[C@H](O)[C@H]3O)c(O)c2)oc2cc(O)cc(O)c12,"Estrogen receptor (ESR1, Homo sapiens, UniProt P03372)","DNA binding array formation, agonist",PRL-HeLa expressing ESR1-GFP,1 h,,EC50,2.36 µM
Nc1ccc([N+](=O)[O-])cc1-c1nc2cc(Cl)ccc2n(Cc2ccccc2)c1=O,"CFTR (Homo sapiens, UniProt P13569)","short-circuit current, activator",FRT expressing wild-type CFTR,,,EC50,0.308 µM
CCCCCCCC(=O)OCC(COP(=O)(O)OC1C(O)C(O)C(OP(=O)(O)O)C(OP(=O)(O)O)C1O)OC(=O)CCCCCCC (stereo not drawn),"Arf-GAP with SH3 domain, ANK repeat and PH domain-containing protein 1 (Asap1, Mus musculus, UniProt Q9QWY8)","GAP activity, activator",,"no phosphatidylserine, added: myrArf1·GTP substrate",,EC50,18 µM

# Repeated from above:
SMILES,tested on,assay,test system,setting,scale,endpoint,value
Cc1cccc(NC(=O)c2nn(Cc3cnc[nH]3)c3c2CN(C(=O)c2ccc[nH]2)CC3)c1,"IDH1 (Homo sapiens, UniProt O75874, R132C)","R-2-HG production, inhibitor, LC-MS/MS",HT-1080,24 h,,EC50,> 36 µM
COc1cc(CC(=O)NCC(NC(=O)C(CCCNC(=O)c2cccc(I)c2)NC(=O)C(Cc2ccc(C(F)(F)P(=O)(O)O)cc2)NC(=O)c2ccc(C)c(Br)c2)C(N)=O)ccc1O (stereo not drawn),"PTPN22 (Homo sapiens, UniProt Q9Y2R2)",enzyme activity,,10 µM,,inhibition,no inhibition
O=C(O)C(Cl)(Cl)Cl,Ppara,"coactivator recruitment, agonist, biolayer interferometry, item: PGC-1alpha peptide",,"pH 7.4, 25 °C, 0.1% fatty acid-free BSA, sodium salt",,EC50,900 µM
